Assay results gathered from unrelated publications.
EGFR L858R: Epidermal growth factor receptor (EGFR, Homo sapiens, UniProt P00533, L858R)
EGFR del746-750: Epidermal growth factor receptor (EGFR, Homo sapiens, UniProt P00533, del746-750)
EGFR: Epidermal growth factor receptor (EGFR, Homo sapiens, UniProt P00533)
EGFR G719C: Epidermal growth factor receptor (EGFR, Homo sapiens, UniProt P00533, G719C)
EGFR L861Q: Epidermal growth factor receptor (EGFR, Homo sapiens, UniProt P00533, L861Q)

| Structure (SMILES) | target | assay | system | setting | how to read | endpoint | value |
| --- | --- | --- | --- | --- | --- | --- | --- |
| CC(C)Oc1cc(N2CCN(C)CC2)ccc1Nc1nc(N)n(C(=O)NCc2ccccc2S(=O)(=O)C(C)C)n1 | Epidermal growth factor receptor (EGFR, Homo sapiens, UniProt P00533, del747-752/P753S) | enzyme activity |  | 10 µM | reference: control | remaining activity | 15% |
| COc1ccc(-c2nn(-c3ccc(S(C)(=O)=O)cc3)cc2C=N/N=c2\[nH]c(-c3ccc([N+](=O)[O-])cc3)cs2)cc1 | EGFR L858R | kinase activity, inhibitor |  | 1 µM |  | inhibition | 80.3% |
| COc1cc(-c2cncc3c2CN(C)Cc2cc(N4CCNCC4)ccc2-3)cc(OC)c1OC | Epidermal growth factor receptor (EGFR, Homo sapiens, UniProt P00533, L858R/T790M) | kinase activity |  | 1 µM, together with: ATP 10 µM | reference: DMSO control | remaining activity | 106% |
| COc1cc2ncnc(Nc3ccc(F)c(Cl)c3)c2cc1OCCCN1CCN(C(=O)CCOCCOCCOCCOCCOCCNc2ccc3c(c2)C(=O)N(C2CCC(=O)NC2=O)C3=O)CC1 (stereo not drawn) | EGFR del746-750 | protein degradation, degrader, western blot | HCC827 | 100 nM |  | duration of degradation | ≤ 48 h |
| CC(C)C[C@H](NC(=O)[C@H](CO)NC(=O)[C@H](CO)NC(=O)CNC(=O)[C@@H]1CCCN1C(=O)[C@H](Cc1ccc(O)cc1)NC(=O)[C@H](CC(C)C)NC(=O)[C@H](CO)NC(=O)[C@H](CS)NC(=O)[C@H](CC(C)C)NC(=O)[C@@H](N)CC(C)C)C(=O)O | Epidermal growth factor receptor, extracellular domain (EGFR, Homo sapiens, UniProt P00533) | binding, second site, surface plasmon resonance | immobilised soluble EGFR | model, binding, one to two |  | kon | 582 M⁻¹ s⁻¹ |
| COc1ccc(-c2nn(-c3ccc(S(C)(=O)=O)cc3)cc2/C=N/N=c2\[nH]c(-c3ccc(Br)cc3)cs2)cc1 | EGFR L858R | kinase activity, inhibitor |  | 1 µM |  | inhibition | 73% |
| CC(C)C[C@H](NC(=O)[C@H](CO)NC(=O)[C@H](CO)NC(=O)CNC(=O)[C@@H]1CCCN1C(=O)[C@H](Cc1ccc(O)cc1)NC(=O)[C@H](CC(C)C)NC(=O)[C@H](CO)NC(=O)[C@H](CS)NC(=O)[C@H](CC(C)C)NC(=O)[C@H](CC(C)C)NC(=O)CCCCCNC(=S)Nc1ccc2c(c1)C(=O)OC21c2ccc(O)cc2Oc2cc(O)ccc21)C(=O)O | EGFR | binding, first site, LigandTracer cell binding | A-431 | FITC-labelled, model, binding, one to two |  | koff | 1.89e-05 s⁻¹ |
| COc1cc(N2CCN(C)CC2)ccc1Nc1nc(N)n(C(=O)NCc2ccccc2S(=O)(=O)C(C)C)n1 | EGFR G719C | enzyme activity |  | 10 µM | reference: control | remaining activity | 1% |
| CCCOc1ccc(OC)c(F)c1C(=O)c1ccc(C(=O)N[C@@H]2CNC[C@H]2NC(=O)c2ccc3[nH]ncc3c2)cc1 | EGFR | enzyme activity |  | 10 µM |  | remaining activity | 105% |
| CCOc1cc(N2CCN(C)CC2)ccc1Nc1nc(N)n(C(=O)NCc2ccccc2S(=O)(=O)C(C)C)n1 | Epidermal growth factor receptor (EGFR, Homo sapiens, UniProt P00533, A750P/del747-749) | enzyme activity |  | 10 µM | reference: control | remaining activity | 19% |
| C[C@@H](c1ccc(-n2cnc3c(N)ncnc32)cc1)N1CCc2nn(C)c(Cc3ccccc3)c2C1=O | EGFR L861Q | KINOMEscan |  | 0.1 µM | reference: DMSO control | remaining binding | 72% |
| COc1cc(N2CCN(C)CC2)ccc1Nc1nc(N)n(C(=S)NCc2c(Cl)cccc2Cl)n1 | EGFR del746-750 | enzyme activity |  | 10 µM | reference: control | remaining activity | 2.1% |
| [2H]c1cc(C)c(NC(=O)c2cnc(Nc3cc(N4CCCCC4)nc(C)n3)s2)c(Cl)c1 | EGFR |  |  | 0.01 µM |  | inhibition | < 30% |
| C=CC(=O)N1CCC(C(=O)NCC(=O)N2CCN(c3nc(-c4cnc(N)nc4C(F)F)nc(N4CCOCC4)n3)CC2)CC1 | EGFR L858R | KINOMEscan |  | 1 µM |  | remaining binding | 100% |
| C=CC(=O)N1CCC(COCC(=O)N2CCN(c3nc(-c4cnc(N)nc4C(F)F)nc(N4CCOC[C@@H]4C)n3)CC2)CC1 | Epidermal growth factor receptor (EGFR, Homo sapiens, UniProt P00533, T790M) | KINOMEscan |  | 1 µM | reference: DMSO control | remaining binding | 86% |
| O=C(NC1CCC1)c1ccc2nc(-c3cccc(NS(=O)(=O)NCCN4CCCCC4)c3)cn2c1 | EGFR G719C | enzyme activity |  | 10 µM |  | remaining activity | 100% |
| COc1cc(N2CCN(C)CC2)ccc1Nc1nc(N)n(C(=O)NCc2c(Cl)cccc2Cl)n1 | EGFR L861Q | enzyme activity |  | 10 µM | reference: control | remaining activity | 9.6% |
| CC(C)Cc1ccc(-c2nn(-c3ccc(S(C)(=O)=O)cc3)cc2/C=N/N=c2\[nH]c(-c3ccc([N+](=O)[O-])cc3)cs2)cc1 | EGFR L858R | kinase activity, inhibitor |  | 0.01 µM |  | inhibition | 28% |

Repeated from above:
| Structure (SMILES) | target | assay | system | setting | how to read | endpoint | value |
| --- | --- | --- | --- | --- | --- | --- | --- |
| CC(C)Cc1ccc(-c2nn(-c3ccc(S(C)(=O)=O)cc3)cc2/C=N/N=c2\[nH]c(-c3ccc([N+](=O)[O-])cc3)cs2)cc1 | EGFR L858R | kinase activity, inhibitor |  | 0.01 µM |  | inhibition | 28% |
| COc1ccc(-c2nn(-c3ccc(S(C)(=O)=O)cc3)cc2C=N/N=c2\[nH]c(-c3ccc([N+](=O)[O-])cc3)cs2)cc1 | EGFR L858R | kinase activity, inhibitor |  | 1 µM |  | inhibition | 80.3% |
| COc1ccc(-c2nn(-c3ccc(S(C)(=O)=O)cc3)cc2/C=N/N=c2\[nH]c(-c3ccc(Br)cc3)cs2)cc1 | EGFR L858R | kinase activity, inhibitor |  | 1 µM |  | inhibition | 73% |
